Assay results from different studies.
Each line is one published result; not all experiments were run side by side. Several values in a cell are separate wells, animals, samples, runs or records. ± gives the spread as reported.

`Cc1cc(C)c2c(c1)[C@@H](N(Cc1cc(C(F)(F)F)cc(C(F)(F)F)c1)c1nnn(C)n1)CCCN2C[C@H]1CC[C@H](C(=O)O)CC1` gave a Vss/F of 998 L (human, plasma; oral, 100 mg once daily, steady state, geometric mean).
`CC1(C)C=Cc2cc(CN(CC3CC3)S(=O)(=O)c3ccccn3)ccc2O1` has an aqueous solubility of less than 15 µg/mL (laser nephelometry; PBS with 1% DMSO; 90 min, pH 7.4).
`Cn1cc(-c2cc(N3CCCCS3(=O)=O)ccc2Oc2ccc(F)cc2F)c2c(F)c[nH]c2c1=O` has an oral bioavailability of 22% (Sprague-Dawley rat, plasma; oral vs intravenous, 3 mg/kg oral, 1 mg/kg i.v.).
For `CN(C)C(=O)c1cc2cnc(Nc3ccc(N4CCNCC4)cn3)nc2n1C1CCCC1`, the AUCtau was 30700 ng·h/mL (human, plasma; 600 mg, steady state, geometric mean, with: binimetinib).
For `Cc1nc2ccccc2c(O)c1CC=C(Cl)Cl`, the maximum solubility was 20 µM (0.1 M sodium acetate with 0.01% Triton X-100; pH 5.5).
The AUC(0-12h) of `CCCOc1ccc([C@H]2CNC(=O)N2c2ccc3[nH]cnc3c2)cc1` is reported as 120 ng·h/mL (non-elderly adults, fasted, plasma; oral, 20 mg twice daily, day 11, oral solution, geometric mean).
Under “QT prolongation all grades”, `CN(C)C(=O)c1cc2cnc(Nc3ccc(N4CCNCC4)cn3)nc2n1C1CCCC1` is recorded as 0% (patients Rb+ solid tumours; oral, 600 mg continuous, treatment-related adverse events).
`O=C(O)[C@H](c1ccccc1Cl)N1CCc2sccc2C1`: “deviation from nominal” 5% (HPLC-MS/MS; feline citrate plasma; 6 h, -80 °C, storage stability).
`O=C(O)CN(CC(=O)O)Cc1cc2c(cc1O)Oc1cc(O)c(CN(CC(=O)O)CC(=O)O)cc1C21OC(=O)c2ccccc21` has a permeation of 17% (FCS; POPS/POPC giant vesicles; 20 nM, 30 min, pH 7.4, no membrane potential).
Under “volume of distribution”, `COc1cc2ncnc(Nc3ccc(F)c(Cl)c3)c2cc1OCCCN1CCOCC1` is recorded as 8.3 L/kg (ICR mice, male, plasma; intravenous, 5 mg/kg, cassette dosing).
The unbound fraction of `COc1c(C)c2c(c(O)c1C/C=C(\C)CCC(=O)O)C(=O)OC2` is reported as 4.1 ± 1.11% (equilibrium dialysis; dogs, albumin H2 allele, plasma; 12.5 µM).
`CCCC[C@H](NC(C)=O)C(=O)N[C@H]1CCC(=O)NC[C@@H](C(=O)N[C@@H](Cc2c[nH]c3ccccc23)C(N)=O)NC(=O)[C@H](CCCNC(=N)N)NC(=O)[C@@H](Cc2ccccc2)NC(=O)[C@H](Cc2c[nH]cn2)NC1=O` has a Vd/F of 15.6 L/kg (female rat, plasma; subcutaneous, 5 mg/kg/day, multiple doses, once daily).
`CCC[C@@]1(CCc2ccccc2)CC(O)=C([C@H](CC)c2cccc(NS(=O)(=O)c3ccc(C(F)(F)F)cn3)c2)C(=O)O1` has an oral bioavailability of 44 ± 4% (Sprague Dawley rat, male, plasma; oral, 5 mg/kg, long-chain triglyceride formulation).
With `teicoplanin` the trough concentration was 15.9 ± 4.94 mg/L (human, CrCl 40 to 60 mL/min, serum; intravenous, 400 mg q12h loading, 400 mg/day, day 4).
`NC(=O)N1c2ccccc2C=Cc2ccccc21` gave an AUC(0-24 h) of 49200 ng·h/mL (rat, Sprague Dawley, both sexes, plasma; oral, 10 mg/kg, alone).
Under “acetonitrile at elution”, `CCCCCCCCCCCCCNCC(=O)N(CC(=O)N(CCCCN)CC(=O)N(CCN)CC(=O)N(CC(N)=O)Cc1ccco1)Cc1ccco1` is recorded as 67.6% (preparative RP-HPLC C18; water to acetonitrile gradient; 0.05% TFA in eluent; higher = more hydrophobic).
The AUC(0-12 h) of `CC(=O)Nc1ccc(O)cc1` is reported as 36500 ng·h/mL (healthy volunteers, both sexes, plasma; oral, dose not given, day 2, with: favipiravir, acute).
`Cc1cc(Nc2cc3ncccc3c(N[C@@H]3C[C@H]4CC[C@@H](C3)N4CCC#N)n2)n[nH]1` has a Cmax of 46.9 ng/mL (beagle dog, female, plasma; oral, 30 mg/kg/day, last day of 13 weeks).
The half-life mean of `Cn1c(-c2ccc(C(N)=O)cc2F)nnc1C(C)(C)Oc1c(F)cc(Cl)cc1F` is reported as 17.2 h (young non-Japanese adults, plasma; oral, 20 mg single dose, day 1, high-dose multiple-dose study).
The AUC(0-12h) of `CCN1C(=O)CNc2ncc(-c3ccc(-c4nc[nH]n4)nc3C)nc21` is reported as 221 ng·h/mL (human, plasma; oral, 8 mg once daily, multiple doses).
`O=C1Oc2ccccc2C(=O)CCc2ccccc21` has a kinetic solubility of greater than 100 µg/mL (nephelometry; aqueous buffer; 30 min, pH 6.5).
With `CO/N=C1\C[C@]2(C[C@@H]3C[C@@H](C/C=C(\C)C[C@@H](C)/C=C/C=C4\CO[C@@H]5[C@H](O)C(C)=C[C@@H](C(=O)O3)[C@]45O)O2)O[C@H](/C(C)=C/C(C)C)[C@H]1C` the elimination half-life was 134 h (HPLC, non-compartmental; Corriedale lambs, parasitized, plasma; subcutaneous, 0.2 mg/kg).
`CS(=O)(=O)OC[C@H](O)[C@@H]1CO1`: “RBC/plasma partition coefficient” 0.57 and 0.64 and 0.79 (Wistar rat, male, red blood cells and plasma; intraperitoneal, 500 mg/kg treosulfan, 4 h).
For `CC1(C)C(/C=C/C=C/C=C/C=C2\N(CCCCS(=O)(=O)O)c3ccc4ccccc4c3C2(C)C)=[N+](CCCCS(=O)(=O)[O-])c2ccc3ccccc3c21`, “fluorescence quantum yield” read 7.76 ± 0.59% (integrating sphere; human serum; 1 h, room temperature, excitation 780 nm).
`CCn1ncc2c1-c1cnc(N)c(c1)O[C@H](C)c1cc(F)ccc1-c1nn(C)nc1C2` — result for “free plasma concentration”: 0.2 to 0.7 nM (nude mouse PDX model, plasma; oral, 0.04 mg/kg twice daily, 12 h).
`CC[C@H](C)[C@H](N)C(=O)O` — result for “Π (relative logD)”: 1.59 ± 0.08 (octanol/phosphate buffer; pH 7.0, N-4-nitrobenzoyl amino acid derivatives; reference: glycine derivative).
`Cc1nc(-c2ccc(OCC(C)C)c(C#N)c2)sc1C(=O)O` has an AUC(0-24) of 6600 ng·h/mL (adults with gout, plasma; oral, 80 mg, with: verinurad 15 mg).
Under “unbound tumour-to-plasma ratio Kp,uu”, `CN(C)C(=O)c1cc2cnc(Nc3ccc(N4CCNCC4)cn3)nc2n1C1CCCC1` is recorded as 1.35 (human, non-enhancing tumour; oral, 600 mg/day).
`CC1(C)C2CCC1(C)C(OC(=O)C(O)Cc1ccc(O)c(O)c1)C2` (stereo not drawn) gave a Vd of 3.39 L/kg (Sprague-Dawley rat, plasma; intravenous, 6 mg/kg).
`CCOC(=O)[C@H](C)C[C@@H](Cc1ccc(-c2ccccc2)cc1)NC(=O)CCC(=O)O`: “AUCtau at steady state” 3590 ng·h/mL (male human, plasma; oral, dose not given, day 8, adjusted geometric mean, with: sildenafil).
`C[C@]1(c2nc3c(C(N)=O)cccc3[nH]2)CCCN1` has an AUC(0-12h) of 680 ng·h/mL (human patients, plasma; oral, 20 mg, day -2, cycle 1).
`O=C(/C=C/c1ccc(O)c(O)c1)O[C@H](Cc1ccc(O)c(O)c1)C(=O)O` has an MRT(0-t) of 4.86 ± 1.22 h (UPLC-MS/MS; Wistar rat, microcirculation dysfunction model, plasma; oral, 100 mg/kg Salvia miltiorrhiza stem-leaf extract FS).
For `O=C(Nc1c(Cl)cncc1Cl)c1ccc(OC(F)F)c(OCC2CC2)c1`, the trough concentration was 0.000511 mg/L (human, age 6-11 years, plasma; topical, 0.3% cream once daily, 8 weeks).
`COc1cccc(-c2ccc(NC(=O)C3=C(C(=O)O)CCC3)c(F)c2)c1` gave an AUC(0-t) of 130000 ng·h/mL (human, male, fasted, plasma; oral, 30 mg, single dose, geometric mean).
The AUC(0-t) of `C=CC(=O)Nc1cc(Nc2ncc(C(=O)OC(C)C)c(-c3cn(C)c4ccccc34)n2)c(OC)cc1N(C)CCN(C)C` is reported as 448 ng·h/mL (human, fasted; oral, 120 mg single dose, geometric mean).
For `Cc1c2c(n(-c3ccc(F)cc3Cl)c1-c1ccc(OS(=O)(=O)CCC(F)(F)F)cc1)CCN(N1CCCCC1)C2=O`, the plasma concentration was 1 nM (LC-MS/MS; cynomolgus monkey 4, plasma; intravenous infusion, 0.02 mg/kg, 90 min, total concentration mid-point of PET).
`Cc1nc2cccc(OCC(C)(C)C(=O)NC(C)C)c2c(N)c1C(=O)O` has an excreted dose of 88.4% (Sprague-Dawley rat, both sexes, feces; oral, 10 mg/kg).
For `C=CC(=C)CCC1(C)C(C)CC(O)C23C(=CC(OC(=O)/C=C/C=C/CCCCC)CC12)C(OC(C)=O)OC3OC(C)=O` (stereo not drawn), the haemolysis was 35.5% (haemolysis; 100 µM).
For `C=CC(N)CCC(=O)O` (stereo not drawn), “elimination rate constant” read 0.000556 ± 5.56e-05 s⁻¹ (male Sprague-Dawley rat, plasma; intravenous, 1.0 mg/kg, formulation 0).
`O=C1N=C(N2CCOCC2)CN1c1ccc(Cl)cc1` has an AUC(0-inf) of 82900 ng·h/mL (beagle dog, female, plasma; oral, 30 mg/kg, tablets).
For `CC1(C)C=Cc2c(ccc3c2OC[C@@H](c2ccc(O)cc2O)C3)O1`, the intrinsic clearance was 5000 µL/min/mg (glucuronidation, refers to: M2 formation; Sprague-Dawley rat, male, rat intestinal microsomes; pH 7.4).
`[2H]C([2H])([2H])Oc1cc2c(cc1OC([2H])([2H])[2H])C1CC(=O)C(CC(C)C)CN1CC2` (stereo not drawn) gave a dose-normalized Cmax of 0.9 ng/mL (refers to: deuterated β-HTBZ; healthy human volunteers, plasma; oral, 24 mg single dose, standard meal).
The MRT(0-t) of `O=C(NC[C@H]1CN(c2ccc(N3CCOCC3=O)cc2)C(=O)O1)c1ccc(Cl)s1` is reported as 5.97 ± 0.34 h (Sprague-Dawley rat, male, plasma; oral, 10 mg/kg).
`COc1ccc2c(c1)c(CC(=O)O)c(C)n2C(=O)c1ccc(Cl)cc1` gave an AUC of 35800 ng·h/mL (male ICR mouse, liver; oral, 3 mg/kg, 24 h).
For `CN[C@@H]1[C@H](O)[C@H](NC)[C@H]2O[C@]3(O)[C@H](O[C@@H]2[C@H]1O)O[C@H](C)C[C@H]3NC(=O)Cc1ccc(O)cn1`, the parent remaining was 98.6% (glutathione conjugation; rat liver S9; 100 µM, 2 h, pH 7.4, with: glutathione 0.2 mM).
`CN(CCOc1ccc(CC2SC(=O)NC2=O)cc1)c1ccccn1` (stereo not drawn) gave an MRT(0-inf) of 3.14 ± 0.77 h (Sprague-Dawley rat, female, plasma; intraperitoneal, 5 mg/kg of dasatinib, with: dasatinib co-dosed).
`CS/C(S)=N/CCCC[S+](C)[O-]` (racemic): “mRNA fold change” 0.045 (RT-PCR, refers to: Cyp2c7; rat, mammary gland; oral gavage, 200 mg/kg, dosed for four days; reference: vehicle).
The aqueous solubility of `CCC[N+]1(CC(=O)OC2CCCCCCCCCCC2)CCCCC1.[I-]` is reported as 194 µM (phosphate buffer with 2% DMSO; 90 min, pH 7.4, theoretical maximum 200 µM).
Under “permeation rate constant ratio”, `C[C@]12CC[C@@H]3c4ccc(OS(=O)(=O)O)cc4CC[C@H]3[C@@H]1CCC2=O` is recorded as no less than 30 (BME-UV cell monolayer on Transwell; 100 µM, 4 h, basolateral to apical; reference: support alone over monolayer).
The LDH of `COc1cccc2c1C(=O)c1c(O)c3c(c(O)c1C2=O)C[C@@](O)(C(=O)CO)C[C@@H]3O[C@H]1C[C@H](N)[C@H](O)[C@H](C)O1` is reported as 250 ± 11.7 IU/L (female BALB/c mice, serum; intravenous, 18 mg total in three doses, 2 weeks after last dose).
`CCCS(=O)(=O)Nc1ccc(F)c(C(=O)c2c[nH]c3ncc(-c4ccc(Cl)cc4)cc23)c1F`: “unbound fraction in incubation” 1.38e-05 ± 4.5e-06 (rapid equilibrium dialysis; 100% human plasma; 5 µM, 4 h).

Some of these lines once more:
The half-life mean of `Cn1c(-c2ccc(C(N)=O)cc2F)nnc1C(C)(C)Oc1c(F)cc(Cl)cc1F` is reported as 17.2 h (young non-Japanese adults, plasma; oral, 20 mg single dose, day 1, high-dose multiple-dose study).
`Cc1cc(Nc2cc3ncccc3c(N[C@@H]3C[C@H]4CC[C@@H](C3)N4CCC#N)n2)n[nH]1` has a Cmax of 46.9 ng/mL (beagle dog, female, plasma; oral, 30 mg/kg/day, last day of 13 weeks).
`CCn1ncc2c1-c1cnc(N)c(c1)O[C@H](C)c1cc(F)ccc1-c1nn(C)nc1C2` — result for “free plasma concentration”: 0.2 to 0.7 nM (nude mouse PDX model, plasma; oral, 0.04 mg/kg twice daily, 12 h).
